Published values of several laboratories.
Each line is one published result; not all experiments were run side by side. Several values in a cell are separate wells, animals, samples, runs or records. ± gives the spread as reported.
Enpp1: Ectonucleotide pyrophosphatase/phosphodiesterase family member 1 (Enpp1, Mus musculus, UniProt P06802)
OXA-48: Beta-lactamase OXA-48 (OXA-48, Klebsiella pneumoniae, UniProt Q6XEC0)
blaOXA-33: Beta-lactamase (blaOXA-33, Acinetobacter baumannii, UniProt Q8RLA6)
Bcl-2-related protein A1 C113S/P104K: Bcl-2-related protein A1 (Mus musculus, UniProt Q07440, C113S/P104K)
cyp121: Mycocyclosin synthase (cyp121, Mycobacterium tuberculosis, UniProt P9WPP7)
guaB: Inosine-5'-monophosphate dehydrogenase (guaB, Staphylococcus aureus, UniProt Q2YVL6)
CNR2: Cannabinoid receptor 2 (CNR2, Homo sapiens, UniProt P34972)

By UniProt entry, the sequences of proteins in these tests, tags left out. Residues count along the entry.
UniProt P06802, 92-905 isoform 2 limits assumed: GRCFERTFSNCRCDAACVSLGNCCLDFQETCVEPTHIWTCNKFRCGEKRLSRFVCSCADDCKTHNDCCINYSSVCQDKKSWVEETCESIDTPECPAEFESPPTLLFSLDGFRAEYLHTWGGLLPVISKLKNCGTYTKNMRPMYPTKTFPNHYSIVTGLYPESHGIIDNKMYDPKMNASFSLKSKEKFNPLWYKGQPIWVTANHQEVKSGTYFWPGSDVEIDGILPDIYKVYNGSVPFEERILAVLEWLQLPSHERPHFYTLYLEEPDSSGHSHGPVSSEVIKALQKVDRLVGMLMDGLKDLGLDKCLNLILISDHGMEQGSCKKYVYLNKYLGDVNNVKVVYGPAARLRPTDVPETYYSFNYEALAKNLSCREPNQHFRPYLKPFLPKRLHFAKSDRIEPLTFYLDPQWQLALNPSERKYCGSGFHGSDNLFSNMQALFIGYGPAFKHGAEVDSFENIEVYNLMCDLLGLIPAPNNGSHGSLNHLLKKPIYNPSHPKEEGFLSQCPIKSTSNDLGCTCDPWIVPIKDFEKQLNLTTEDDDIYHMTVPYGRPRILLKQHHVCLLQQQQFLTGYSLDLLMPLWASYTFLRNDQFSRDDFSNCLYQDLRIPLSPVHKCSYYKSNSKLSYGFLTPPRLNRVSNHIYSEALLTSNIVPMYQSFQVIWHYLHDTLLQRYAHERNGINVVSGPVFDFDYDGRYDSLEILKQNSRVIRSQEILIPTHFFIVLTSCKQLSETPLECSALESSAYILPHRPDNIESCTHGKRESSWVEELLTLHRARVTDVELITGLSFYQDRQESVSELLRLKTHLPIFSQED
UniProt Q6XEC0, 23-265 limits assumed: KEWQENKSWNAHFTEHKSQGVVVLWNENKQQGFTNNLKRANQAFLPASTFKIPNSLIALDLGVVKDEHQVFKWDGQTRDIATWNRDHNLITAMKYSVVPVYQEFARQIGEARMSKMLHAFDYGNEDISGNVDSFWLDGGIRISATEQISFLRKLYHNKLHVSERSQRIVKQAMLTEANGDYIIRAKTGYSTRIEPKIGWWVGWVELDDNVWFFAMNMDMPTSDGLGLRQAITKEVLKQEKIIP
UniProt Q8RLA6, 21-275 limits assumed: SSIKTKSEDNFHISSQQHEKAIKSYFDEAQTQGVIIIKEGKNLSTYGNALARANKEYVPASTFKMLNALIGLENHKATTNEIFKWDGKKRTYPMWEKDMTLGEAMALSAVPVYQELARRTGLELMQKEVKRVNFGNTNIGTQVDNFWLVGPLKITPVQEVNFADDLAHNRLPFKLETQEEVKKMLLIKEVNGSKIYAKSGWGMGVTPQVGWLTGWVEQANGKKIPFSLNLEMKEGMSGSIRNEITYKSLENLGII
UniProt Q07440, whole entry P104K/C113S, looked up: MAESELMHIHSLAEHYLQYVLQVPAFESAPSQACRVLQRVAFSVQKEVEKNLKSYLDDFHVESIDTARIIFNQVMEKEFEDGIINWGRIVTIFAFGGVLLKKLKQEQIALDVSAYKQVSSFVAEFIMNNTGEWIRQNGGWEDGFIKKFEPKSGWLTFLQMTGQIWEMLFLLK
UniProt P9WPP7, whole entry: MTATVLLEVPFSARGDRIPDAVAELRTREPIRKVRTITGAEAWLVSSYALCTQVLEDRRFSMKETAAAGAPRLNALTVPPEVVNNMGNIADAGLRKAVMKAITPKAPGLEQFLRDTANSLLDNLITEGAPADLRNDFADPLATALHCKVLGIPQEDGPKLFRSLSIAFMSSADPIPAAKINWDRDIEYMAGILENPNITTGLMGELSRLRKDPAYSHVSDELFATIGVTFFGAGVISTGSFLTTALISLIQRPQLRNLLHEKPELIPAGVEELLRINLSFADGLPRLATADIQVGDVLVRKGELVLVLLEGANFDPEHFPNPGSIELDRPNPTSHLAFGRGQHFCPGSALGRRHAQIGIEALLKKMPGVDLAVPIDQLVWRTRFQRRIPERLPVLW
UniProt Q2YVL6, whole entry: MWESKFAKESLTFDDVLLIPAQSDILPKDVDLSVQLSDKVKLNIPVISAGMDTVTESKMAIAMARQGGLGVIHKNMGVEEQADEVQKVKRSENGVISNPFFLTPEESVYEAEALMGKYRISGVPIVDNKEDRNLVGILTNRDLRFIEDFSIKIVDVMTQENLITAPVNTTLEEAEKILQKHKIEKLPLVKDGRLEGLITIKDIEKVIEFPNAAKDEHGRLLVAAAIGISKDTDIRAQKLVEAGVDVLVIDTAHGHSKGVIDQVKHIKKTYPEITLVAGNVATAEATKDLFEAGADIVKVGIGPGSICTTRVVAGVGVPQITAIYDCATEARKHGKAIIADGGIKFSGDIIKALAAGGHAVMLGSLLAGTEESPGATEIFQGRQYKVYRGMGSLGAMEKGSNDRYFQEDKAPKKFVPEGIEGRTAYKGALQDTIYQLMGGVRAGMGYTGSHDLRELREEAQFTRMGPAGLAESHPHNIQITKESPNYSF
UniProt P34972, whole entry: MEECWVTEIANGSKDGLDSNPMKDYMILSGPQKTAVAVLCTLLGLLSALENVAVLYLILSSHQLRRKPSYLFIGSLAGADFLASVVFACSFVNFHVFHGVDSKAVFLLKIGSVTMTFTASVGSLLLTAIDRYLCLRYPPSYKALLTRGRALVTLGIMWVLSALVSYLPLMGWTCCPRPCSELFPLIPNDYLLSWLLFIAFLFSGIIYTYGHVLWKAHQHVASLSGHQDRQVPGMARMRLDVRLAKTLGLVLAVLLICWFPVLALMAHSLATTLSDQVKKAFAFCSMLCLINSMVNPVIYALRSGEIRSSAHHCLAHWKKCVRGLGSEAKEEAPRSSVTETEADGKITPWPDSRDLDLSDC
UniProt C7C2U7, 1-163: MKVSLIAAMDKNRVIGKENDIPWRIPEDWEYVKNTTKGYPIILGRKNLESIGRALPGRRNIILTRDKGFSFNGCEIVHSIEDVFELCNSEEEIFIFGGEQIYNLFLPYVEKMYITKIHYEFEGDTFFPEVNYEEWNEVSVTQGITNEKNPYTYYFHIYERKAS
UniProt Q04430, whole entry: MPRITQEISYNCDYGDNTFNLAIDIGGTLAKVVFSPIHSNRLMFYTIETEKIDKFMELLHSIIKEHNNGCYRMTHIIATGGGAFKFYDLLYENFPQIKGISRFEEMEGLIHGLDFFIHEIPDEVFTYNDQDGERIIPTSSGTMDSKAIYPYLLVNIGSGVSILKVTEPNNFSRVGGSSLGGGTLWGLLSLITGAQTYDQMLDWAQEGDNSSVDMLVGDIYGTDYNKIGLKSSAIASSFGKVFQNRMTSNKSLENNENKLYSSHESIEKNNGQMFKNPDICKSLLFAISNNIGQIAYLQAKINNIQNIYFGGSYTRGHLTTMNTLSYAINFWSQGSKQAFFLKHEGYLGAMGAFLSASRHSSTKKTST
UniProt P21554, whole entry: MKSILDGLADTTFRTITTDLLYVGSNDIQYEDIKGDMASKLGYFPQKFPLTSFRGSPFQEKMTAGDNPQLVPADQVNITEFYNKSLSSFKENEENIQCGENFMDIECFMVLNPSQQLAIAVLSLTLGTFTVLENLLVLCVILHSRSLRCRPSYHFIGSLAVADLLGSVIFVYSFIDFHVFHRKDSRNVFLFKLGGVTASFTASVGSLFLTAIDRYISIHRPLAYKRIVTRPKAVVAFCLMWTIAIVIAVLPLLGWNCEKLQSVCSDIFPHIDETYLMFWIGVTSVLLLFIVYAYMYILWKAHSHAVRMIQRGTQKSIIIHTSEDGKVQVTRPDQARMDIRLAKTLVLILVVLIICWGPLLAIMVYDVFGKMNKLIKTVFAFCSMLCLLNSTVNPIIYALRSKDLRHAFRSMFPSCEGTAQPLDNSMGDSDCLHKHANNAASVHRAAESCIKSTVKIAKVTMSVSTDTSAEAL
UniProt P35462, whole entry: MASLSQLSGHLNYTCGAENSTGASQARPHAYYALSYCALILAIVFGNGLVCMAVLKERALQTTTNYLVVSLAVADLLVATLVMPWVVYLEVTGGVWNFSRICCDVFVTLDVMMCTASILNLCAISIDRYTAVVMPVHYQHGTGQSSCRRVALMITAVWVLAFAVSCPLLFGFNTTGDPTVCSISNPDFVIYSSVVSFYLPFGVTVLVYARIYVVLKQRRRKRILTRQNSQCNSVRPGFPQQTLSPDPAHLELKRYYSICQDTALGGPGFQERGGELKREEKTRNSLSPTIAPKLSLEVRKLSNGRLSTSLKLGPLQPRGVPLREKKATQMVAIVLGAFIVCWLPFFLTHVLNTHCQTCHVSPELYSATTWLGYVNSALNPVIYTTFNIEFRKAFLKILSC
UniProt P19491, 22-883 limits assumed: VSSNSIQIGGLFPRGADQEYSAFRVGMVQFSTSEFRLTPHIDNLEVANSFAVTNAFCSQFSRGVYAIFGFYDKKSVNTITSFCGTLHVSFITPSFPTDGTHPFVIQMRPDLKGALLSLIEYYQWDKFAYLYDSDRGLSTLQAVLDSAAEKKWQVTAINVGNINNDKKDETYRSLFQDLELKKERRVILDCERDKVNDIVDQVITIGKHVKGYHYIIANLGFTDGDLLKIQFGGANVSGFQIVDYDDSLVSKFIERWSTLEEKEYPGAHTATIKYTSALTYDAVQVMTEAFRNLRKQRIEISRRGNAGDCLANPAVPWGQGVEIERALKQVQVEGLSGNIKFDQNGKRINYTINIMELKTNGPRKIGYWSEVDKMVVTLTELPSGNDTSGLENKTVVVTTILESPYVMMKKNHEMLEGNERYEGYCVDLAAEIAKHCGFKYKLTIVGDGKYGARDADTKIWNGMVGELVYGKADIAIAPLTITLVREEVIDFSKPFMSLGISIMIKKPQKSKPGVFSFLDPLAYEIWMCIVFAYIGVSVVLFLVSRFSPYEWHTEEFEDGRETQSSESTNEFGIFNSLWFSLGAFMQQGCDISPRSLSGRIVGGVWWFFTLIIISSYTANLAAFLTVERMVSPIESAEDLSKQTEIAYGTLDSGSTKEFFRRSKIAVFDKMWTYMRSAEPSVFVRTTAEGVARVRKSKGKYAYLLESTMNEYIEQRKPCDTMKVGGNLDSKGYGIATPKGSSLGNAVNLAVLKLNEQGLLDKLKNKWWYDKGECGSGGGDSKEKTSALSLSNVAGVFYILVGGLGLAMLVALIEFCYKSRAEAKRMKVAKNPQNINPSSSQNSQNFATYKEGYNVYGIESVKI
UniProt P00811, whole entry, looked up: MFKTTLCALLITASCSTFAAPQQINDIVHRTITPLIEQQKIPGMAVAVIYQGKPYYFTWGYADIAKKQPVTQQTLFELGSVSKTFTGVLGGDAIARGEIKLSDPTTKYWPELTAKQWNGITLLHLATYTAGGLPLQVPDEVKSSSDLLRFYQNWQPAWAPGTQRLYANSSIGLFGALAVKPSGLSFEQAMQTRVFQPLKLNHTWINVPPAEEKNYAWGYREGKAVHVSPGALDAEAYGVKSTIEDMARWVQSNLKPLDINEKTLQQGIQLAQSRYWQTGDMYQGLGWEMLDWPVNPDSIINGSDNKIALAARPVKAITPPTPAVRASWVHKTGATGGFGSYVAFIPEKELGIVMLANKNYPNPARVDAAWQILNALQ
UniProt P13955, whole entry: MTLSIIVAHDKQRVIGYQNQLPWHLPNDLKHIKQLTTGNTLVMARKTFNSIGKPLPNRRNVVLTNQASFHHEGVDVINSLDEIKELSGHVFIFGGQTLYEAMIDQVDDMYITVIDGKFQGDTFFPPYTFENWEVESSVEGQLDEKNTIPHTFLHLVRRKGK
UniProt P05067, 672-713 limits assumed: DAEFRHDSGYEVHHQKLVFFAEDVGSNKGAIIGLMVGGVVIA
UniProt Q6ZMT4, 92-488 limits assumed: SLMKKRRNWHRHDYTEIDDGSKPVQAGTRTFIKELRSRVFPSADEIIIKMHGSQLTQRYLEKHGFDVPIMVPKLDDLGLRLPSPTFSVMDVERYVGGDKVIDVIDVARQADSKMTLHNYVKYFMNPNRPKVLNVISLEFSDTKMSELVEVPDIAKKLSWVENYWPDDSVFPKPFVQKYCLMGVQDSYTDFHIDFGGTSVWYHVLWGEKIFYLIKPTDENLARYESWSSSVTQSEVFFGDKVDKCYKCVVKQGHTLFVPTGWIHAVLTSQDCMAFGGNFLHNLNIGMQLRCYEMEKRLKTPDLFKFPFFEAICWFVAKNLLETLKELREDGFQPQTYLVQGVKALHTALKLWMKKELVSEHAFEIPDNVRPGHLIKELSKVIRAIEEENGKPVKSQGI
UniProt P14416, whole entry: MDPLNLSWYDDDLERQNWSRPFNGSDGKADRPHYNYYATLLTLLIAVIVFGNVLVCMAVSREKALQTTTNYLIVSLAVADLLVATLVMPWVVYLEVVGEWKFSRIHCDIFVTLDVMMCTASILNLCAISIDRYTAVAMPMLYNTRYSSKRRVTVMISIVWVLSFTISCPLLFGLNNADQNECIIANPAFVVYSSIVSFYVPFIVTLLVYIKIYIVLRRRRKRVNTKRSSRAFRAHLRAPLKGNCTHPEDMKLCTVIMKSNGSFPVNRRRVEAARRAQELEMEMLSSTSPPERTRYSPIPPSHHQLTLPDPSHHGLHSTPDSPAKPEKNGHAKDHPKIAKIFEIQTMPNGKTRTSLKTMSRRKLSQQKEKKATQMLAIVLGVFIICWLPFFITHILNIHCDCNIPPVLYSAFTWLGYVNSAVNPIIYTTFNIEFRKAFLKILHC

COc1cc2ncnc(NCc3ccc(CP(=O)(O)O)cc3)c2cc1OC
Ki (Enpp1; enzyme activity, inhibitor, coupled luciferase AMP detection; pH 7.4, added: cGAMP 5 µM): 0.026 µM

O=S(=O)(O)c1ccc2c(c1)Cc1cc(S(=O)(=O)O)ccc1-2
Ki (OXA-48; enzyme activity, inhibitor): 0.5 µg/mL

CC(=NO)c1cccc(C(C)(C)NC(=O)Nc2ccc(Cl)c(-c3nc(C(F)(F)F)cs3)c2)c1
Ki (IMPDH 2, Staphylococcus aureus, Y446C; inhibitor; added: 8 mM NAD+, 1.0 mM IMP): 0.92 ± 0.03 µM

O=C(O)c1ccc(-c2cccc(C(=O)O)c2)cc1
Ki (blaOXA-33; enzyme activity, inhibitor; enzyme 0.2 nM, added: nitrocefin 30 µM): 118.4 ± 0.9 µM

CC(C)(NC(=O)Nc1ccc(Cl)c(-c2nc(C(F)(F)F)cs2)c1)c1cccc(C(N)=NO)c1
Ki (IMPDH 2, Staphylococcus aureus, G445S; inhibitor; added: 500 µM NAD+, 1.0 mM IMP): 0.93 ± 0.03 µM

O=C(NO)c1cc(F)cc(F)c1
Ki (hdac6 (Danio rerio, UniProt F8W4B7); enzyme activity, inhibitor, steady-state kinetics): 1.7 ± 0.2 µM

CCc1nc(N)nc(N)c1C#CC(C)c1cc2c(c(-c3ccc(CC(=O)O)cc3)c1)OCO2 (stereo not drawn)
Ki (Dihydrofolate reductase (Staphylococcus aureus, UniProt C7C2U7); inhibitor): 0.0018 ± 0.0002 µM

CC(C)(C)c1ccc(CNc2nc3[nH]c(CN4CCCCC4)cc(=O)n3n2)cc1
Ki (CAB1 (Saccharomyces cerevisiae, UniProt Q04430); enzyme activity, inhibitor, ADP-Glo, Lineweaver-Burk; added: ATP 1000 µM): 0.076 µM

COC(=O)[C@@H](CS)N1C(=O)c2ccc(N(C)C)cc2C1=O
Ki (blaNDM-1 (Klebsiella pneumoniae, UniProt C7C422); binding, inhibitor): 0.2 ± 0.03 µM

O=[N+]([O-])c1ccc(N=Nc2c(O)ccc3cc(S(=O)(=O)O)ccc23)cc1
Ki (Bcl-2-related protein A1 C113S/P104K; binding, inhibitor, fluorescence polarization; added: FITC-labelled Noxa peptide): 3 µM

CS(=O)(=O)Cc1onc(-c2cccc(Cl)c2)c1-c1ccnc(N[C@@H]2CCN(Cc3nccs3)C2)n1
Ki (cGMP-dependent protein kinase (PKG, Plasmodium falciparum, UniProt Q8I719); kinase activity, ATP-competitive inhibitor, IMAP kinetics): 0.068 ± 0.02 µM

CCCCCCCCCCCCNC(=O)N[C@H](C(=O)N[C@H]1/C=C/CCNC(=O)/C=C/[C@H](C)NC1=O)C(C)C
Ki (PSMB7 (Homo sapiens, UniProt Q99436); trypsin-like activity, inhibitor, Proteasome-Glo; MM.1R; 24 h): 0.0537 ± 0.0159 µM

CC(c1ccc2c(c1)[nH]c1ccccc12)n1ccnc1 (stereo not drawn)
Kd (cyp121; binding): 8.7 ± 1.3 µM

O=C(NC1CCN(c2ncnc3c2nc(-c2ccccc2Cl)n3-c2ccc(Cl)cc2)CC1)C1CCCC1
Ki (CNR1 (Homo sapiens, UniProt P21554); binding, radioligand displacement; CHO cell membranes; added: [3H]CP55940): 0.0015 µM

COc1ccccc1N1CCN(CCCCN2CCCc3ccccc3C2=O)CC1
Ki (DRD3 (Homo sapiens, UniProt P35462); radioligand competition binding; added: [3H]N-methylspiperone): 0.0007 µM

C=C(C)c1cccc(C(C)(C)NC(=O)Nc2ccc(Cl)c(O)c2)c1
Ki (guaB; inhibitor; added: 1000 µM IMP and 1000 µM NAD+): 0.009 ± 0.004 µM

Cc1cc(C)c(Nc2nc(Nc3ccc(C#N)cc3)nc(OCCCN3CCOCC3)n2)c(C)c1
Ki (Gag-Pol polyprotein, reverse transcriptase (gag-pol, Human immunodeficiency virus 1, UniProt P03366); nucleotide incorporation, inhibitor, pre-steady-state burst; added: dATP): 0.014 ± 0.004 µM

O=[N+]([O-])c1ccc(N=Nc2c(S(=O)(=O)O)cc3cc(S(=O)(=O)O)ccc3c2O)c([N+](=O)[O-])c1
Ki (Bcl-2-related protein A1 C113S/P104K; binding, inhibitor, fluorescence polarization; added: FITC-labelled Noxa peptide): 2.32 µM

C[C@@H]1CN(C)CCN1c1nc(-c2ccc(F)cc2)cs1
Ki (SLC6A3 (Homo sapiens, UniProt Q01959)): 7 µM

O=C(O)C(Cc1nn[nH]n1)[C@@H]1CCN[C@H]1C(=O)O (relative stereo)
Ki (Gria2 (Rattus norvegicus, UniProt P19491); binding): > 1000 µM

Nc1nc2c(ncn2[C@@H]2CC[C@H](OC(C(=O)O)P(=O)(O)O)C2)c(=O)[nH]1 (relative stereo)
Ki (Gag-Pol polyprotein, reverse transcriptase (gag-pol, Human immunodeficiency virus type 1 group M subtype B, UniProt P04585); noncompetitive inhibitor; added: varying dGTP, poly rC.dG): 0.85 µM

COc1ccc(NC(=O)CSc2nc3c(N)ncnc3[nH]2)cc1OC
Ki (Enpp1; enzyme activity, inhibitor, coupled luciferase AMP detection; pH 9, added: cGAMP 5 µM): > 10 µM

CCOc1ccccc1N1CCN(c2ncnc(N3CCC(C(N)=O)CC3)n2)CC1
Ki (OXA-48; enzyme activity, inhibitor; added: nitrocefin): > 50 µM

CC(C)(NC(=O)Nc1ccc(Cl)cc1)c1cccc(C(=N)NO)c1
Ki (guaB; inhibitor; added: 1000 µM IMP and 1000 µM NAD+): 0.0215 ± 0.0002 µM

COc1ccc(S(=O)(=O)N(CC(C)C)C[C@@H](O)[C@H](Cc2ccccc2)NC(=O)O[C@H]2CO[C@H]3C[C@H]4OCC[C@H]4[C@H]32)cc1
Ki (Gag-Pol polyprotein, protease (gag-pol, Human immunodeficiency virus type 1 group M subtype B, UniProt P04585); protease activity, inhibitor): 0.00143 µM

Cc1cc(O)nc2ccc(NS(=O)(=O)c3cc(Cl)cc(Cl)c3O)cc12
Ki (Beta-lactamase (ampC, Escherichia coli K-12, UniProt P00811); inhibitor, concentration-response curves; added: nitrocefin 50 µM): 3.64 µM

O=S(=O)(O)c1ccc(-c2ccc(S(=O)(=O)O)cc2)cc1
Ki (OXA-48; enzyme activity, inhibitor): 1.4 µg/mL

CCc1nc(N)nc(N)c1C#CC(C)c1cc2c(c(-c3ccc(C(=O)O)cc3)c1)OCO2 (stereo not drawn)
Ki (Dihydrofolate reductase type 1 from Tn4003 (Staphylococcus aureus, UniProt P13955); inhibitor): 0.017 ± 0.001 µM

Nc1nc2[nH]cc(Cc3ccc(C(=O)Nc4ccccc4C(=O)O)cc3)c2c(=O)[nH]1
Ki (Dihydrofolate reductase (Wuchereria bancrofti, UniProt J9F199); inhibitor, Cheng-Prusoff from IC50): 1 µM

Nc1cc(S(=O)(=O)O)cc2cc(S(=O)(=O)O)cc(O)c12
Ki (blaOXA-33; enzyme activity, inhibitor; enzyme 0.2 nM, added: nitrocefin 30 µM): 140 ± 7 µM

CC(=O)c1cccc(C(C)(C)NC(=O)Nc2ccc(Cl)c(-c3nc(C(F)(F)F)cs3)c2)c1
Ki (guaB; inhibitor; added: 1000 µM IMP and 1000 µM NAD+): 0.025 ± 0.001 µM

COc1cc2c(cc1OC)C(=O)C(CC1CCN(Cc3cc(C=Cc4ccc(C=Cc5ccc(N(C)C)cc5)cc4)cc(OC)c3O)CC1)C2 (stereo not drawn)
Ki (Amyloid-beta precursor protein, Aβ42 fibrils (APP, Homo sapiens, UniProt P05067); thioflavin T displacement, competition binding; Aβ42 aggregates 5 µM; added: thioflavin T 2 µM): 1.3 ± 0.3 µM

COc1cc2c(N(C)C)nc(NCCCN(C)C)nc2cc1OCCCCCN
Ki (Lysine-specific demethylase 7A, Jumonji domain (KDM7A, Homo sapiens, UniProt Q6ZMT4); demethylase activity, inhibitor, mass spectrometry; added: H3K9me2 peptide): 2.1 µM

Cc1c(C(=O)NN2CCCCC2)nn(-c2ccc(Cl)cc2Cl)c1-c1ccc(CCCCCBr)cc1
Ki (CNR2; radioligand displacement; added: [3H]CP55,940): 0.203 µM

O[C@H](c1ccc(F)cc1)C(F)(F)CCN1CCC(O)(c2ccc(Cl)cc2)CC1 (racemic)
Ki (D(2) dopamine receptor, long isoform (DRD2, Homo sapiens, UniProt P14416)): 1.8 ± 0.196 µM

O=C(Cc1cccs1)NC(B(O)O)c1cccc(C(=O)O)c1 (stereo not drawn)
Ki (ADC-7 beta-lactamase (Acinetobacter baumannii, UniProt Q6DRA1); inhibitor): 0.011 ± 0.001 µM

O=C(CC1CCCC1)NC1CCN(c2ncnc3c2nc(-c2ccccc2Cl)n3-c2ccc(Cl)cc2)CC1
Ki (CNR2; binding, radioligand displacement; CHO cell membranes; added: [3H]CP55940): 0.57 µM

c1cn(Cc2ccc(-c3ccc4[nH]ccc4c3)cc2)cn1
Kd (cyp121; binding): 2.4 ± 0.19 µM

O=S(=O)(O)c1ccc2cc(S(=O)(=O)O)ccc2c1
Ki (OXA-48; enzyme activity, inhibitor; 0.2 nM enzyme, added: nitrocefin 30 µM): < 10 µM and 5.1 µM

Excerpt of the above:
Nc1nc2c(ncn2[C@@H]2CC[C@H](OC(C(=O)O)P(=O)(O)O)C2)c(=O)[nH]1 (relative stereo)
Ki (Gag-Pol polyprotein, reverse transcriptase (gag-pol, Human immunodeficiency virus type 1 group M subtype B, UniProt P04585); noncompetitive inhibitor; added: varying dGTP, poly rC.dG): 0.85 µM

COc1ccc(NC(=O)CSc2nc3c(N)ncnc3[nH]2)cc1OC
Ki (Enpp1; enzyme activity, inhibitor, coupled luciferase AMP detection; pH 9, added: cGAMP 5 µM): > 10 µM

CCOc1ccccc1N1CCN(c2ncnc(N3CCC(C(N)=O)CC3)n2)CC1
Ki (OXA-48; enzyme activity, inhibitor; added: nitrocefin): > 50 µM
